Results gathered from unrelated publications.
Parts stem from different laboratories: compare values within a part only.

Series 1
Target: Ras GTPase-activating protein-binding protein 1, C-terminal RGG region (G3BP1, Homo sapiens, UniProt Q13283)
Sequence of UniProt Q13283 (whole entry, looked up): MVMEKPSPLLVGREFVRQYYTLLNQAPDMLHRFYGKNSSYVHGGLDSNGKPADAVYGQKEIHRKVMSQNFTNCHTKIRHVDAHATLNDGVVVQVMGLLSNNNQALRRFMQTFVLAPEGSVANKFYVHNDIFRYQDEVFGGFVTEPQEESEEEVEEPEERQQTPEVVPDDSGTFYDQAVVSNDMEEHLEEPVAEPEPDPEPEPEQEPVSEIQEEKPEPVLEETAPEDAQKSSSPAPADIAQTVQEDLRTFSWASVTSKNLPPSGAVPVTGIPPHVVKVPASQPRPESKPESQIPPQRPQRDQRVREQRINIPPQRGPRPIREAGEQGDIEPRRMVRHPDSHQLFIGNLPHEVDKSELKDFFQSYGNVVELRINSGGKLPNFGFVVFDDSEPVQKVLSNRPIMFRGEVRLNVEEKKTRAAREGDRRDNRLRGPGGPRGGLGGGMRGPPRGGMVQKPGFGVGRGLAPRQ
Method: RNA Bind-n-Seq
Form: RNA
Medium: in vitro
Concentration: 1 µM
Setting: whole 134-nt RNA, ends assumed
Together with: 150 mM KCl
Relative to: input library
Reading: higher = stronger binding
`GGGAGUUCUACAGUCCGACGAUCGCAGGAAGUAAAAACAAAUGGAAAUGCUUCGGAUAGUGGCAGGGGUGGGGGUUGCUAAGGGAAGGGUGGGAUGGGAGUGGGUAAAGAGUUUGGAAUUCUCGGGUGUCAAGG` gave a log2 enrichment of 2.52.
For `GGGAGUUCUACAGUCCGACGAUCAAGUCCUGUGCUACACAUCGUAUGUACCGAAUCGGGGUUUUUGGGGAGGGGAGGGGAAAGUAUUAUGUUACGCCGUUCGGAUCUGCACUUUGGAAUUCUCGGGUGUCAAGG`, the log2 enrichment was 2.58.
`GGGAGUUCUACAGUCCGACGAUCUAACUUUAGAGGAGGAUCUGAUGGAUAUGGCAGUGGACGUGGAUUUGGGGAUGGCUAUAAUGGGCAUGGAGGAGGACCUGGAGGUGGCAAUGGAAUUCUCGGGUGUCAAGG` has a log2 enrichment of -0.97.
The log2 enrichment of `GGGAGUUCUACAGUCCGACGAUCAAGUCCUGUGCUACACAUCGUAUGUACCGAAUCGGGUUUUUUUGGGAAAGGGUGGGAAAGUAUUAUGUUACGCCGUUCGGAUCUGCACUUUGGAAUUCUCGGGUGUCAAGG` is reported as 0.869.
With `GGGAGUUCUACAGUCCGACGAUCUGGCCCUGGUGGCAUGCGGGGAGGAAGAGGUGGCCUCAUGGAUCGUGGUGGUCCCGGUGGAAUGUUCAGAGGUGACCGUGGUGGAGACAGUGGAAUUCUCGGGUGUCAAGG` the log2 enrichment was 2.82.
With `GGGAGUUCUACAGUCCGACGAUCGCAGGAAGUAAAAACAAAUGGAAAUGAUUCGGAUAGUGGCAGGGGUGGGGGUUGCUAAGGAAAGGGUGGGAUGGGAGUGGGUAAAGAGUUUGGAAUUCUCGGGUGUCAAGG` the log2 enrichment was 1.88.
`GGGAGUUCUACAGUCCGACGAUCCCUCAAGUCCUGUGCUACACAUCGUAUGUACCGAAUCGGGGUGGGGUGGUGGAAAGUAUUAUGUUACGCCGUUCGGAUCUGCACUUCCAGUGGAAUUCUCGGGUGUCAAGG` has a log2 enrichment of -0.194.
The log2 enrichment of `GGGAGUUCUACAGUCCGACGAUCAGUCCUGUGCUACACAUCGUAUGUACCGAAUCGGGGAAAAGGGAAAAGGGGAAAAGGGAAAGUAUUAUGUUACGCCGUUCGGAUCUGCACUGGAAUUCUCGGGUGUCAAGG` is reported as 0.392.

Series 2
Target: RNA binding protein fox-1 homolog 2, RRM domain, GST-SBP tag (RBFOX2, Homo sapiens, UniProt O43251-10, residues 100-194)
Method: RNA Bind-n-Seq
Form: RNA
Medium: in vitro
Concentration: 365 nM
Setting: natural RNA segment, single round, ends assumed
Relative to: no-protein control
Reading: higher = stronger binding
Construct (chain): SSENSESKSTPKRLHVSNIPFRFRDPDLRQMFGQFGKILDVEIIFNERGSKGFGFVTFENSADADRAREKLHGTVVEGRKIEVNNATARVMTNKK
`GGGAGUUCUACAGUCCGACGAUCGUUUGAAACCAACCUUGGCUGCAUACAGAUGAUGUAUAUAUAGGCCAGCAUGGGUUACACUGUCUGUCUUAGCAAACAAAAUUUCAACUGUUUGAGAAAGAUUUUGUUCUUGGAAUUCUCGGGUGCCAA`: “RBNS enrichment (R)” 1.28.
For `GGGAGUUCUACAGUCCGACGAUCGGCAUGAAGUGAACACAAAUUCUGCAAAGAAUUUUUUUGAUAUUGGCAAUAAUCAACAAUCUUCCAGAUUUGCACAAAAAGAUCUUGAAAUUUGAUGCAUAACUUUUAAGUGGAAUUCUCGGGUGCCAA`, “RBNS enrichment (R)” read 0.78.
Under “RBNS enrichment (R)”, `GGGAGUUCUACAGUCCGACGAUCAGGUUUAUGACUCUGAAGACCAGAGGACAGCAGGCUUUAAGAGGGCUUAAAUUGGGAGUCAAGGACUAUAGUCAGGAGACCCCCAGGUACCUGGUUCAGAGCAGUCCGGGUGGAAUUCUCGGGUGCCAA` is recorded as 0.237.
Under “RBNS enrichment (R)”, `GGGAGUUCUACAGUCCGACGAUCUGGCAAUUCCGCUGGAGCUGUCUGCCAAAAGAAACUGCCUACAGACAUCAUCACAGCAGCCUCCUCACUUGGGUACUACAGUGUGGAAGCUGAGUGCAUAUGGUAUAUUUUGGAAUUCUCGGGUGCCAA` is recorded as 0.187.
`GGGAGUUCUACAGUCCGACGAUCUUGGAAAAAUAAUUUUGCAUUUUUUGAGCCUUUGAAAGUUGGAAAGUCCACUAACUGUUCAAAGAUAAGGAGCAGUGCCUAUUCUCAAGAGCAGCCAUGCCAUGUACUCCUGGAAUUCUCGGGUGCCAA` — result for “RBNS enrichment (R)”: 0.655.
Under “RBNS enrichment (R)”, `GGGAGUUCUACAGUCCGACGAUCCUUGCUCUGUCGCCCAGGCUGGAGCGCAGUGGCGCAAUCUCGGCUCACUGCAACCUCCACCUCCUGGGUUCAAGCAAUUCUUGUGCCUCAGCCUCCCGAGUAGCUGGGAUUGGAAUUCUCGGGUGCCAA` is recorded as 0.313.
`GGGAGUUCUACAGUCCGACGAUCCAAAAUCCCUCAAGAUAACCCUUUGCUAGGAAGUGGUGAAUCUAAAAGCUGAAGCACGUUUCAUAUGAAGCCAGUUCAGUGGCCUUGUUUAUUUCAAGACAAUGCCUUAUUGGAAUUCUCGGGUGCCAA` — result for “RBNS enrichment (R)”: 0.367.
For `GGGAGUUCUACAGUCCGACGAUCGUUUGUUGGGGAGAAGAAGCACUUUUAAGGAAAAUGCUUCUUAUUUUUCCAAGGCAUUCAGAAGCAGAGAGGGAAAAGGGGCUGUGUGACCUAACAGGACAGAACUUUCUUGGAAUUCUCGGGUGCCAA`, “RBNS enrichment (R)” read 0.56.

Series 3
Cell line: HEK-293T
Effect on: pseudovirus infection
Method: FDA-approved drug library screen
Organism: VSV pseudotyped with SARS-CoV-2 spike
Concentration: 10 µM
Time: 16 h
Relative to: vehicle-treated
With `CN(C)CCC(c1ccccc1)c1ccccn1` (centres unmarked) the GFP-positive cells was 86.3%.
The GFP-positive cells of `CC1=C(C(=O)O)N2C(=O)[C@@H](NC(=O)[C@H](N)c3ccc(O)cc3)[C@H]2SC1` is reported as 88.7%.
The GFP-positive cells of `CCCCC(=O)O[C@]1(C(=O)CO)CC[C@H]2[C@@H]3CCC4=CC(=O)CC[C@]4(C)[C@H]3[C@@H](O)C[C@@]21C` is reported as 109%.
`CN1CCC[C@@H]1Cc1c[nH]c2ccc(CCS(=O)(=O)c3ccccc3)cc12` gave a GFP-positive cells of 103%.
For `CCc1nc(N)nc(N)c1-c1ccc(Cl)cc1`, the GFP-positive cells was 57.4%.

Series 4
Target: Replicase polyprotein 1ab, nsp13 helicase (rep, Severe acute respiratory syndrome coronavirus 2, UniProt P0DTD1)
Mode: inhibitor
Concentration: 20 µM
`Ic1cncc(OC[C@@H]2CCN2)c1` gave an inhibition of 11.5%.
With `OCCCCO` the inhibition was 5.13%.
The inhibition of `Clc1ccc(CCC(Cn2ccnc2)Sc2c(Cl)cccc2Cl)cc1` (centres unmarked) is reported as -1.57%.
For `OC[C@H]1NC[C@@H](O)[C@@H](O)[C@@H]1O`, the inhibition was 8.31%.
The inhibition of `CC(C)(C)c1ccc(CN2CCN(C(c3ccccc3)c3ccc(Cl)cc3)CC2)cc1` (centres unmarked) is reported as 3.51%.
`CC[C@H]1CN2CC[C@H]1C[C@@H]2[C@@H](O)c1ccnc2ccc(OC)cc12` gave an inhibition of 4.7%.
With `COC[C@@H](NC(C)=O)C(=O)NCc1ccccc1` the inhibition was -4.17%.
With `Cc1ccc(C(=O)Nc2ccc(CN3CCN(C)CC3)c(C(F)(F)F)c2)cc1C#Cc1cnc2[nH]ncc2c1` the inhibition was 14.9%.
The inhibition of `CCCc1cc(C)[nH]c(=O)c1CNC(=O)c1cc(-c2ccc(N3CCN(C(C)C)CC3)nc2)cc2c1cnn2C(C)C` is reported as 5.01%.
`Nc1nc2c(cnn2CCc2ccccc2)c2nc(-c3ccco3)nn12` has an inhibition of 3.29%.
With `CN(C)CCOC(=O)COc1ccc(Cl)cc1` the inhibition was -1.34%.
The inhibition of `Cc1cc(SCc2sc(-c3ccc(C(F)(F)F)cc3)nc2C)ccc1OCC(=O)O` is reported as 9.61%.
With `C[C@@H]1COCCN1c1cc(=O)n2c(n1)N(Cc1cncc(Cl)c1)[C@H](C(F)(F)F)CC2` the inhibition was 4.57%.
With `N[C@@H]1CCN(O)C1=O` the inhibition was 4.89%.
For `O=C(c1cccc(Br)c1)N1CCC(N2CCCC2)CC1`, the inhibition was 4.21%.
With `COc1ccc(CNCc2cccc3ccccc23)cc1` the inhibition was 4.93%.
The inhibition of `C[C@H](N)C(=O)N[C@@H](CCC(N)=O)C(=O)O` is reported as -2.77%.
For `Cc1cc(Nc2ncc(Cl)c(Nc3ccccc3S(=O)(=O)C(C)C)n2)c(OC(C)C)cc1C1CCNCC1`, the inhibition was 6.94%.
`CO/N=C(\C(=O)N[C@@H]1C(=O)N2C(C(=O)O)=C(C)CS[C@H]12)c1csc(N)n1` gave an inhibition of 5.83%.
`CCOc1cc2ncc(C#N)c(Nc3ccc(F)c(Cl)c3)c2cc1NC(=O)/C=C/CN(C)C` gave an inhibition of 6.8%.
With `O=C(O)c1nc(=O)[nH]c(=O)[nH]1` the inhibition was -1.48%.
`Cc1nc[nH]c1CCN` gave an inhibition of 6.87%.
`CCCCCCCC/C=C\CCCCCCCC(=O)NCCO` has an inhibition of -1.29%.
`C=C1C(=O)O[C@@H]2C[C@@]3(C)CCC[C@H](C)C3=C[C@H]12` has an inhibition of 8.94%.
`O=C(O)c1c2ccccc2cc2ccccc12` gave an inhibition of 2.35%.

Series 5
Target: Replicase polyprotein 1ab, main protease (rep, Severe acute respiratory syndrome coronavirus 2, UniProt P0DTD1)
Effect on: enzyme activity
Mode: inhibitor
Concentration: 20 µM
Setting: hit confirmation, with DTT
With `C[C@H]1COC2=C1C(=O)C(=O)c1c2ccc2c1CCCC2(C)C` the inhibition was 64.3%.
The inhibition of `NC[C@H](O)c1ccc(O)c(O)c1` is reported as 13.1%.
The inhibition of `O=[N+]([O-])c1ccc(O)c2ncccc12` is reported as -8.2%.
With `O=[N+]([O-])C=Cc1ccc2c(c1)OCO2` the inhibition was 6.5%.

For quick reference, copied from above (series 1):
`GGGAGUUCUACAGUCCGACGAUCUAACUUUAGAGGAGGAUCUGAUGGAUAUGGCAGUGGACGUGGAUUUGGGGAUGGCUAUAAUGGGCAUGGAGGAGGACCUGGAGGUGGCAAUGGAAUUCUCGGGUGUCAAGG` has a log2 enrichment of -0.97.
The log2 enrichment of `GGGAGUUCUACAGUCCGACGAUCAGUCCUGUGCUACACAUCGUAUGUACCGAAUCGGGGAAAAGGGAAAAGGGGAAAAGGGAAAGUAUUAUGUUACGCCGUUCGGAUCUGCACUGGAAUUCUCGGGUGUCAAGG` is reported as 0.392.
With `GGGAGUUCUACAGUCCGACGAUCUGGCCCUGGUGGCAUGCGGGGAGGAAGAGGUGGCCUCAUGGAUCGUGGUGGUCCCGGUGGAAUGUUCAGAGGUGACCGUGGUGGAGACAGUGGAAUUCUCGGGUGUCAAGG` the log2 enrichment was 2.82.
